Experimental data from different studies.
Each line is one published result; not all experiments were run side by side.

With `CC(C)(CN)CNCc1nc2ccccc2n1CCOc1ccccc1` the MIC was 8 µg/mL (Streptococcus pneumoniae; ATCC 49619).
For `CCCC(CCC)C(=O)O`, the viability was 124% (HBL-1; 0.5 µM, 120 h).
The MIC of `CC[C@H](C)CCCCC(=O)N[C@@H](CCN)C(=O)N[C@H](C(=O)N[C@@H](CCN)C(=O)N[C@H]1CCNC(=O)[C@H]([C@@H](C)O)NC(=O)[C@H](CCN)NC(=O)[C@H](CCN)NC(=O)[C@H](CC(C)C)NC(=O)[C@@H](CC(C)C)NC(=O)[C@H](CCN)NC1=O)[C@@H](C)O` is reported as 4 µg/mL (Staphylococcus simulans; broth microdilution; 22, cation-adjusted Mueller-Hinton broth; 20 to 24 h, 37 °C, 0.002% polysorbate 80).
`c1ccc(OCCn2c(CNCC34CC5CC(CC(C5)C3)C4)nc3ccccc32)cc1` has an MIC of 4 µg/mL (Streptococcus pneumoniae; ATCC 49619).
`N=C(N)c1ccc(OCc2cc(COc3ccc(C(=N)N)cc3)cc(-c3ccccc3)c2)cc1` gave an MIC of 25 µg/mL (Escherichia coli; BW25113; in combination, lowest-FICI combination, added: vancomycin).
With `CNC(C)C1CCC(N)C(OC2C(N)CC(N)C(OC3OCC(C)(O)C(NC)C3O)C2O)O1` (stereo not shown) the MIC was 4 µg/mL (Serratia fonticola; clinical isolate RKI-No_517/16).
For `CC1NC(=O)C(C(=O)NC(C(=O)NC2C(=O)N3C2SC(C)(C)C3C(=O)O)c2ccccc2)=C1O` (stereo not shown), the MIC was 25 µg/mL (Escherichia coli; broth microdilution; ATCC 25922 wild type; added: clavulanic acid 6 µg/mL).
`Cc1ccc(CCC(=O)Nc2nnc(S(N)(=O)=O)s2)cc1` gave an MIC of 3.06 µM (Enterococcus hirae; ATCC 10541).
With `CN[C@H](CC(C)C)C(=O)N[C@H]1C(=O)N[C@@H](CC(N)=O)C(=O)N[C@H]2C(=O)N[C@H]3C(=O)N[C@H](C(=O)N[C@H](C(=O)O)c4cc(O)cc(O)c4-c4cc3ccc4O)[C@H](O)c3ccc(c(Cl)c3)Oc3cc2cc(c3O[C@@H]2O[C@H](CO)[C@@H](O)[C@H](O)[C@H]2O[C@H]2C[C@](C)(N)[C@H](O)[C@H](C)O2)Oc2ccc(cc2Cl)[C@H]1O` the MIC was 3.1 µg/mL (Streptococcus pneumoniae; ATCC 49619, wild type, CAMHB, lysed horse blood).
`NC[C@H]1O[C@H](O[C@H]2[C@H](O)[C@@H](O[C@H]3O[C@H](CO)[C@@H](O)[C@H](N)[C@H]3O)[C@H](N)C[C@@H]2N)[C@H](O)[C@@H](O)[C@@H]1O` has an MIC of 27.5 µM (Kocuria sp.; broth microdilution).
`CCCCCCCCCC(=O)N[C@@H](Cc1c[nH]c2ccccc12)C(=O)N[C@H](CC(N)=O)C(=O)N[C@@H](CC(=O)O)C(=O)N[C@@H]1C(=O)NCC(=O)N[C@@H](CCCN)C(=O)N[C@@H](CC(=O)O)C(=O)N[C@H](C)C(=O)N[C@@H](CC(=O)O)C(=O)NCC(=O)N[C@H](CO)C(=O)N[C@@H]([C@H](C)CC(=O)O)C(=O)N[C@@H](CC(=O)c2ccccc2N)C(=O)O[C@@H]1C` gave an MIC of 1 µg/mL (Staphylococcus simulans; broth microdilution; 22, Mueller-Hinton broth, Mg2+ 10 mg/L; 16 h, 30 °C, added: Ca2+ 1.0 mM).
With `COc1cc2c(NC3CCN(C)CC3)nc(N3CCCN(C)CC3)nc2cc1OCCCN(C)C` the viability was 102% (HBL-1; 0.5 µM, 120 h).
`CCc1nc(N)nc(N)c1OCCCOc1ccccc1CCC(=O)O` gave an MIC of 0.1 µg/mL (Mycobacterium avium subsp. hominissuis; resazurin microtiter; 104).
`CN[C@H](CC(C)C)C(=O)N[C@H]1C(=O)N[C@@H](CC(N)=O)C(=O)N[C@H]2C(=O)N[C@H]3C(=O)N[C@H](C(=O)N[C@H](C(=O)O)c4cc(O)cc(O)c4-c4cc3ccc4O)[C@H](O)c3ccc(c(Cl)c3)Oc3cc2cc(c3O[C@@H]2O[C@H](CO)[C@@H](O)[C@H](O)[C@H]2O[C@H]2C[C@](C)(N)[C@H](O)[C@H](C)O2)Oc2ccc(cc2Cl)[C@H]1O` has an MIC of 0.125 µg/mL (Staphylococcus simulans; broth microdilution; 22, cation-adjusted Mueller-Hinton broth; 20 to 24 h, 37 °C, 0.002% polysorbate 80).
`C[C@@H](O)[C@H]1C(=O)N2C(C(=O)O)=C(S[C@@H]3CN[C@H](C(=O)N(C)C)C3)[C@H](C)[C@H]12` has an MIC of 32 µg/mL (Klebsiella oxytoca; broth microdilution; isolate RKI 52/07).
With `Fc1c(F)c(F)c(OCCn2c(CNCC34CC5CC(CC(C5)C3)C4)nc3ccccc32)c(F)c1F` the MIC was 8 µg/mL (Streptococcus pneumoniae; ATCC 49619).
`CC(C)C[C@@H](NC(=O)[C@H](C)NC(=O)CNC(=O)[C@@H](NC=O)C(C)C)C(=O)N[C@@H](C)C(=O)N[C@@H](C(=O)N[C@H](C(=O)N[C@@H](C(=O)N[C@@H](Cc1c[nH]c2ccccc12)C(=O)N[C@H](CC(C)C)C(=O)N[C@@H](Cc1c[nH]c2ccccc12)C(=O)N[C@H](CC(C)C)C(=O)N[C@@H](Cc1c[nH]c2ccccc12)C(=O)N[C@@H](C(=O)N[C@@H](Cc1c[nH]c2ccccc12)C(=O)NCCO)C(C)C)[C@H](C)O)C(C)C)C(C)C` gave an MIC of 0.0083 µM (Streptococcus pneumoniae; broth microdilution; NBRC 102642).
`N=C(N)c1ccc(OCCC(CCOc2ccc(C(=N)N)cc2)c2ccccc2)cc1` (stereo not shown) has an MIC of greater than 200 µg/mL (Escherichia coli; mcr-2 polymyxin-resistant; 20 h, compound alone).
With `CC1(C)S[C@@H]2[C@H](NC(=O)[C@H](N)c3ccccc3)C(=O)N2[C@H]1C(=O)O` the MIC was greater than 16 µg/mL (Pseudomonas aeruginosa; clinical isolate RKI-No_253/15).
The MIC of `CN1CC(O)=C(C(=O)NC(C(=O)NC2C(=O)N3C2SC(C)(C)C3C(=O)O)c2ccccc2)C1=O` (stereo not shown) is reported as 25 µg/mL (Escherichia coli; broth microdilution; ATCC 25922 wild type; no clavulanic acid).
For `CC(C)C[C@@H]1NC(=O)[C@@H](Cc2ccccc2)NC(=O)[C@H](CCN)NC(=O)[C@@H](NC(=O)[C@H](CCN)NC(=O)[C@@H](N)[C@@H](C)O)CCNC(=O)[C@H]([C@@H](C)O)NC(=O)[C@H](CCN)NC(=O)[C@H](CCN)NC1=O`, the MIC was 12.5 µg/mL (Escherichia coli; MIC of compound in combination, checkerboard; BW25113; concentration not given, lowest-FICI combination, added: vancomycin).
The MIC of `C[C@H]1COc2c(N3CCN(C)CC3)c(F)cc3c(=O)c(C(=O)O)cn1c23` is reported as no more than 0.03 µg/mL (Citrobacter freundii; agar dilution; ATCC 43864 susceptible).
